{"data": "Published values collected from several papers", "note": "Parts stem from different laboratories: compare values within a part only. Several values in a cell are separate wells, animals, samples, runs or records. pIC50, pKd: −log10 of the molar value."}
{"data": "Study 1", "target": "Fibroblast growth factor receptor 1 (FGFR1, Homo sapiens, UniProt P11362)", "effect on": "enzyme activity", "mode": "inhibitor", "sequence of UniProt P11362 (whole entry, looked up)": "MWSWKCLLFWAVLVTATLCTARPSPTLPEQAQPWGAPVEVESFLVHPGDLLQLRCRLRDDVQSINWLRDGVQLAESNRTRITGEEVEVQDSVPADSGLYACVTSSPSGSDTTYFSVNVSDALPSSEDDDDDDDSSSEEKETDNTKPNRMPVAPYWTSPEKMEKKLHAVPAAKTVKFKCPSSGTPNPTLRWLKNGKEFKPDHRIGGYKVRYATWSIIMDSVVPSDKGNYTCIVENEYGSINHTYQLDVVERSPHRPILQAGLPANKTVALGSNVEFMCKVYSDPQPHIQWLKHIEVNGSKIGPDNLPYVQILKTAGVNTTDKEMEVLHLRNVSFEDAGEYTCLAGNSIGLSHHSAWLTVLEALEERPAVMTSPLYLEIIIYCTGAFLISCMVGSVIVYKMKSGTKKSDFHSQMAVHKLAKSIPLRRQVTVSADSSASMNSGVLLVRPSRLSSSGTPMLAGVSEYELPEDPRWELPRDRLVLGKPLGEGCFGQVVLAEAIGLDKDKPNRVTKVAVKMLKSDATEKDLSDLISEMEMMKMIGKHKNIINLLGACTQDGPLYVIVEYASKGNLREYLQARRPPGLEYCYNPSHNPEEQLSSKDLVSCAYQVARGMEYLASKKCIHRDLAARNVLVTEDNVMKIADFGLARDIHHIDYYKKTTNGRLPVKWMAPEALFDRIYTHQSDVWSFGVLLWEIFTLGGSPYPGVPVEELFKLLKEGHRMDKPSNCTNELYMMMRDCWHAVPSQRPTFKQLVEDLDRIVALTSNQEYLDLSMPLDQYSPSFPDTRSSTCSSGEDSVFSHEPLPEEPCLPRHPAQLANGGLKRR"}
{"SMILES": "CNc1ncc2cc(-c3cc(OC)cc(OC)c3Cl)c(=O)n(CCc3ccc(N(C)C(=O)C(C#N)=CC(C)(C)NC)cc3)c2n1", "pIC50": 8.52}
{"SMILES": "CNc1ncc2cc(-c3cc(OC)cc(OC)c3Cl)c(=O)n(CCc3ccc(NC(=O)C(C#N)=CC(C)(C)N)cc3)c2n1", "pIC50": 9.30}
{"SMILES": "CNc1ncc2cc(-c3cc(OC)cc(OC)c3Cl)c(=O)n(CCc3ccc(NC(=O)C(C#N)=CC(C)(C)N(C)C)cc3)c2n1", "pIC50": 8.54}
{"data": "Study 2", "organism": "Arabidopsis thaliana", "strain": "Col-0", "tested at": "25 µg/mL", "setting": "seed germination, single repetition"}
{"SMILES": "CN1C(=O)C(O)(C(=O)O)Oc2cc(F)ccc21 (stereo not shown)", "hypocotyl length": "1.85 cm and 1.78 cm and 1.75 cm"}
{"SMILES": "O=C(O)C1(O)Oc2cc(Cl)ccc2N(Cc2ccccc2)C1=O (stereo not shown)", "hypocotyl length": "1.69 cm and 1.68 cm and 1.66 cm and 1.62 cm and 1.63 cm"}
{"SMILES": "O=C(O)C1(O)Oc2ccccc2N(Cc2ccccc2)C1=O (stereo not shown)", "hypocotyl length": "1.46 cm and 1.47 cm and 1.48 cm and 1.52 cm and 1.53 cm"}
{"SMILES": "CC(C)=CCN1C(=O)C(O)(C(=O)O)Oc2cc(F)ccc21 (stereo not shown)", "hypocotyl length": "1.9 cm and 1.87 cm and 1.81 cm and 1.83 cm and 1.82 cm"}
{"SMILES": "Cc1ccc2c(c1)OC(O)(C(=O)O)C(=O)N2Cc1ccccc1 (stereo not shown)", "hypocotyl length": "1.82 cm and 1.81 cm and 1.83 cm"}
{"data": "Study 3", "target": "Membrane-associated tyrosine- and threonine-specific cdc2-inhibitory kinase (PKMYT1, Homo sapiens, UniProt Q99640)", "effect on": "cell-free assay", "technique": "TR-FRET", "Construct (Q99640 1-499)": "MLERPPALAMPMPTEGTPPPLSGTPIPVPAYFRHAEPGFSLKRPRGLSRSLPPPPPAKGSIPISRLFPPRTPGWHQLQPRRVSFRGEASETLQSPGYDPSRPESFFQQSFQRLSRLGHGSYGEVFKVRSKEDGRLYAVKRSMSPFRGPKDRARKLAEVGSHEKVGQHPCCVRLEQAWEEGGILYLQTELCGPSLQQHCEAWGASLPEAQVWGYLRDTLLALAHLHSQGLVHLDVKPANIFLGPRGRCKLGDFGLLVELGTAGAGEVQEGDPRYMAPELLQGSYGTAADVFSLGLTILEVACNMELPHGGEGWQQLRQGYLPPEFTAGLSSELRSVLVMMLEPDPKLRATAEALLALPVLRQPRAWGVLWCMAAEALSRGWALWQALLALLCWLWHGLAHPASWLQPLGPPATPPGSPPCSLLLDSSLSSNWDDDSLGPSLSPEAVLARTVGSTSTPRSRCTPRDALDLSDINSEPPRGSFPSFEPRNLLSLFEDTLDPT"}
{"Compound": "Cc1ccc(O)c(C)c1-c1cnc2[nH]c(-c3cnc(N4CCC(CN5CCN(c6ccc7c(c6)C(=O)N(C6CCC(=O)NC6=O)C7=O)CC5)CC4)nc3)cc2c1C#N (stereo not shown)", "pIC50": 8.31}
{"Compound": "Cc1ccc(O)c(C)c1-c1cnc2[nH]c(-c3cnc(N4CCC(CN5CCN(c6cc7c(cc6F)c(N6CCC(=O)NC6=O)nn7C)CC5)CC4)nc3)cc2c1C#N", "pIC50": 8.33}
{"Compound": "Cc1ccc(O)c(C)c1-c1cnc2[nH]c(-c3ccc(N4CCN(C)CC4)nc3C)nc2c1", "pIC50": 6.58}
{"Compound": "Cc1ccc(O)c(C)c1-c1cnc2[nH]c(-c3cnc(N4CCC(CN5CCN(c6cc7c(cc6F)n(C6CCC(=O)NC6=O)c(=O)n7C)CC5)CC4)nc3)cc2c1C#N (stereo not shown)", "pIC50": 8.46}
{"Compound": "Cc1ccc(O)c(C)c1-c1cnc2[nH]c(-c3cnc(N4CC5(CC(CN6CCN(c7ccc(NC8CCC(=O)NC8=O)cc7F)CC6)C5)C4)nc3)cc2c1C#N (stereo not shown)", "pIC50": 8.59}
{"Compound": "Cc1ncc(-c2cc3c(C#N)c(-c4c(C)ccc(O)c4C)cnc3[nH]2)cn1", "pIC50": 8.77}
{"Compound": "Cc1ccc(O)c(C)c1-c1cnc2[nH]c(-c3cnc(N)nc3)cc2c1C#N", "pIC50": 8.59}
{"Compound": "Cc1ccc(O)c(C)c1-c1cnc2[nH]c(-c3cnc(N4CCC(CN5CCN(c6ccc7c(c6F)CN(C6CCC(=O)NC6=O)C7=O)CC5)CC4)nc3)cc2c1C#N (stereo not shown)", "pIC50": 8.40}
{"Compound": "Cc1ccc(O)c(C)c1-c1cnc2[nH]c(-c3cnc(N4CCC(CN5CCN(c6ccc(NC7CCC(=O)NC7=O)cc6F)CC5)CC4)nc3)cc2c1C#N (stereo not shown)", "pIC50": 8.36}
{"data": "Single results of other studies", "target": "von Hippel-Lindau disease tumor suppressor, with Elongin B/C (VHL, Homo sapiens, UniProt P40337)", "technique": "SPR, single-cycle", "medium": "immobilized VCB complex"}
{"Compound": "Cc1ncsc1-c1ccc(C2(NC(=O)C3CC(O)CN3C(=O)C(NC(=O)c3ccc(COc4c(-c5c(C)c(F)cc6[nH]ncc56)c(C5CC5)cc5c(N6CC7CC6CN7)nc(OC6CCOCC6)nc45)cc3)C(C)C)CC2)cc1 (stereo not shown)", "setting": "binary", "measurement": "koff", "value": "0.0526 s⁻¹ and 0.0411 s⁻¹ and 0.0788 s⁻¹"}
{"Compound": "Cc1ncsc1-c1ccc(C2(NC(=O)C3CC(O)CN3C(=O)C(NC(=O)c3ccc(COc4c(-c5c(C)c(F)cc6[nH]ncc56)c(C5CC5)cc5c(N6CC7CC6CN7)nc(OC6CCOCC6)nc45)cc3)C(C)(C)C)CC2)cc1 (stereo not shown)", "setting": "binary, geometric mean", "measurement": "pKd", "value": 5.84}
{"note": "For quick reference, copied from above (study 3):"}
{"Compound": "Cc1ccc(O)c(C)c1-c1cnc2[nH]c(-c3cnc(N4CCC(CN5CCN(c6cc7c(cc6F)c(N6CCC(=O)NC6=O)nn7C)CC5)CC4)nc3)cc2c1C#N", "pIC50": 8.33}
